Measurements gathered from unrelated publications.
Lines come from different studies, so protocols differ. Several values in a cell are separate wells, animals, samples, runs or records. ± marks the error that the study gave.
T1: DNA aptamer; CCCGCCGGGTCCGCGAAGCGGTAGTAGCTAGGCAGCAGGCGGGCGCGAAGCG
UniProt P11388, sequence (whole entry, looked up): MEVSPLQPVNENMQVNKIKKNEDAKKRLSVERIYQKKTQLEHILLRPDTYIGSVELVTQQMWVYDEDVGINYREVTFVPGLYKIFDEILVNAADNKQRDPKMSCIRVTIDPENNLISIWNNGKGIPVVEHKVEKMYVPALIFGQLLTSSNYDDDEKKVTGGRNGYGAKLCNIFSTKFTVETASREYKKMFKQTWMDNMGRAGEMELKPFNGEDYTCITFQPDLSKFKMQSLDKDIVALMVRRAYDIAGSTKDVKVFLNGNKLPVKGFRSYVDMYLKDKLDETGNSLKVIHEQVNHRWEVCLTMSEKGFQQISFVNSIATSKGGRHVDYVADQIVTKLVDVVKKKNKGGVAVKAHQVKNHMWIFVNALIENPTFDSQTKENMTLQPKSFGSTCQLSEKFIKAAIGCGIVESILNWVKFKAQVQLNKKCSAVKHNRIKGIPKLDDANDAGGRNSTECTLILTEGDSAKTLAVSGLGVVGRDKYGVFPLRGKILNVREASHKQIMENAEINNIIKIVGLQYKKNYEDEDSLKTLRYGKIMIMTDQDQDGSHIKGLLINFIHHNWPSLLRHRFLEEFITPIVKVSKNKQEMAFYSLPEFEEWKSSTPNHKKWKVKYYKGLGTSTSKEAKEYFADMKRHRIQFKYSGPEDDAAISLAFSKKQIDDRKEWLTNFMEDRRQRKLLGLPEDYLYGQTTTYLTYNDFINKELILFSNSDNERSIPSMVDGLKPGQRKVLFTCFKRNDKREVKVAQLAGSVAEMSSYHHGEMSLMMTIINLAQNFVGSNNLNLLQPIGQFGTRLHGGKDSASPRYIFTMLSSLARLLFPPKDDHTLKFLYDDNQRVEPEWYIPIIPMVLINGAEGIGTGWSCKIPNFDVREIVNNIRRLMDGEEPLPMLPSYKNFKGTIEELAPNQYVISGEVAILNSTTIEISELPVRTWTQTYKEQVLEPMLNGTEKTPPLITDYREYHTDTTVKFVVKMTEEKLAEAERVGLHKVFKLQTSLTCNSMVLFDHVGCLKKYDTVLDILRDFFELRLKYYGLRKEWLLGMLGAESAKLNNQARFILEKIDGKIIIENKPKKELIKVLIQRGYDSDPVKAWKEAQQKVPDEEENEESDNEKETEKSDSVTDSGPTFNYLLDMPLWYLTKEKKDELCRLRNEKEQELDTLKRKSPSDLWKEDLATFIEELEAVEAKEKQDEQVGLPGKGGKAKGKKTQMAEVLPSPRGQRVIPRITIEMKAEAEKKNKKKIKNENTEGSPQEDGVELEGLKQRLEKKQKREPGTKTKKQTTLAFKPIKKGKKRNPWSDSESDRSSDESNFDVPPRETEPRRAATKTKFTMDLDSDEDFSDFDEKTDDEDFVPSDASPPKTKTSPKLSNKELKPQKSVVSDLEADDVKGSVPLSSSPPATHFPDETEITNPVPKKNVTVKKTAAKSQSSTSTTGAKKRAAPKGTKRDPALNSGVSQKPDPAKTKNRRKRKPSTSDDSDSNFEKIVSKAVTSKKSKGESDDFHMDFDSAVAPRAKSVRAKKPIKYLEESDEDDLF
UniProt P0ABQ4, sequence (whole entry, looked up): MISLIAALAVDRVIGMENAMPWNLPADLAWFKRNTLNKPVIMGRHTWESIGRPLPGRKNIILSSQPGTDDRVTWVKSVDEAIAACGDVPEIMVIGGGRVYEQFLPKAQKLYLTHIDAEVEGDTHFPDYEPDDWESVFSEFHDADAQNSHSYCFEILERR
UniProt P15145, sequence (whole entry, looked up): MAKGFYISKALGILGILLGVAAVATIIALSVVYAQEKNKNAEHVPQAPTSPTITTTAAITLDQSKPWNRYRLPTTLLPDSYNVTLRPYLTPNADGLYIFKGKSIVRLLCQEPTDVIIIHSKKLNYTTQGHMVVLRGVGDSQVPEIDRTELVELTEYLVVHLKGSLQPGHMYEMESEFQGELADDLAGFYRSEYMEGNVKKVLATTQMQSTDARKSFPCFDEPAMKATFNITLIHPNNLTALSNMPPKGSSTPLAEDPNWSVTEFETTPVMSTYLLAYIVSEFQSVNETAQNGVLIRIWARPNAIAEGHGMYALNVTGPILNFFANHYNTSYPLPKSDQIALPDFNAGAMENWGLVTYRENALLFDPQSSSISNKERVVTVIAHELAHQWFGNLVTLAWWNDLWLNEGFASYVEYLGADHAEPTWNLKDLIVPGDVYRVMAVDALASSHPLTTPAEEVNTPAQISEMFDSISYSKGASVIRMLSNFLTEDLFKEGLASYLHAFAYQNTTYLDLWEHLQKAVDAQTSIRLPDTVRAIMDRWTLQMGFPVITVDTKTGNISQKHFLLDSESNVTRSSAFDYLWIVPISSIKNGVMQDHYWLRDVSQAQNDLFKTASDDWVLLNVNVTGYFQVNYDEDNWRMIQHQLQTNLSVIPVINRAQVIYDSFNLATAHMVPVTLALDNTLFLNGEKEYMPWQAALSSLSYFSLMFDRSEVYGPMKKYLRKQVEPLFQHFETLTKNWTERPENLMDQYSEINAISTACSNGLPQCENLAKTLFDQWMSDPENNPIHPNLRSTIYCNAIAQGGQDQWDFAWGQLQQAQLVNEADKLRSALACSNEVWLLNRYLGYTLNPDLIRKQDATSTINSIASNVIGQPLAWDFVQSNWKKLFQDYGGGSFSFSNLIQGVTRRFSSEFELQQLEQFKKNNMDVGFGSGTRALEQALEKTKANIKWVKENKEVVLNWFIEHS
UniProt P11064, sequence (whole entry, unmodified, looked up): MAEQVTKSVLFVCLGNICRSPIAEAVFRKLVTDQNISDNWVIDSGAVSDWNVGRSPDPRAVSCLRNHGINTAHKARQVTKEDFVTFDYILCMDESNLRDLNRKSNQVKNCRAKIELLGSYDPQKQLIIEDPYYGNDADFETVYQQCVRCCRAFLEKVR

| Structure (SMILES) | tested on | test | test system | setting | scale | measurement | result |
| --- | --- | --- | --- | --- | --- | --- | --- |
| OC[C@H]1O[C@@H](O[C@@H]2[C@@H](O)[C@H](O[C@@H]3[C@@H](O)[C@H](O[C@@H]4[C@@H](O)[C@H](O[C@@H]5[C@@H](O)[C@H](O[C@H]6[C@H](O)[C@@H](CO)OC(O)[C@@H]6O)O[C@H](CO)[C@H]5O)O[C@H](CO)[C@H]4O)O[C@H](CO)[C@H]3O)O[C@H](CO)[C@H]2O)[C@H](O)[C@@H](O)[C@@H]1O (stereo partly shown) | uncharacterized protein (Bacteroides thetaiotaomicron, UniProt A0A173VPY3) | ITC |  | pH 7.0, 25 °C |  | -TΔS | 33.1 kcal/mol |
| [Co+2] | uncharacterized protein (Bacteroides thetaiotaomicron, UniProt Q8A4G9) | phosphatase activity, activator, phosphate release |  | 5 mM, EDTA-treated enzyme, added: substrate 9 mM | baseline: activity with Mg2+ | relative specific activity | 0.55 |
| N#CCC1CCN(c2nc(Nc3ccc(N4CCC(O)CC4)cc3)c3c(=O)[nH]ncc3n2)CC1 |  | vs placebo, Olink multiplex | human, serum | 20 mg, day 29, unit not given | baseline: placebo | osteopontin level difference | 1 |
| COc1cc([C@@H]2c3cc4c(cc3[C@@H](O[C@@H]3O[C@@H]5CO[C@@H](C)O[C@H]5[C@H](O)[C@H]3O)[C@H]3COC(=O)[C@H]23)OCO4)cc(OC)c1O | DNA topoisomerase 2-alpha (TOP2A, Homo sapiens, UniProt P11388) | DNA decatenation |  | 100 µM |  | inhibition | 86.4% and 6.1% |
| N#Cc1ccccc1-c1cc(NCCCN2CCCCC2)c2ccccc2n1 | Low molecular weight phosphotyrosine protein phosphatase (Bos taurus, UniProt P11064, N51E/W50Y) |  |  | concentration not given | baseline: wild type | inhibitory potency | increased |
| O=P(O)(O)O[C@H]1O[C@H](CO)[C@@H](O)[C@H](O)[C@H]1O | uncharacterized protein (Bacteroides thetaiotaomicron, UniProt Q8A183) | activator, phosphate release |  | concentration not given, added: Mg2+ |  | phosphatase activity | inactive |
| C=C1[C@@H](O)[C@@H]2O[C@]3(CC[C@H](/C=C/[C@@H](C)[C@@H]4CC(C)=C[C@@]5(O[C@H](C[C@@](C)(O)C(=O)O)CC[C@H]5O)O4)O3)CC[C@H]2O[C@@H]1[C@@H](O)C[C@H](C)[C@H]1O[C@@]2(CCCCO2)CC[C@H]1C | T1, DNA aptamer | microscale thermophoresis |  | pH 7.5, 25 °C, NaCl 150 mM |  | Kd | 0.432 µM |
| COC(=O)Nc1c(N)nc(-c2nn(Cc3ccccc3F)c3ncc(F)cc23)nc1N |  |  | healthy male humans, plasma | oral, 2.5 mg, phase I DDI study, added: sacubitril/valsartan |  | Cmax | 75.2 ng/mL |
| C(=C1c2ccccc2-c2c1ccc1ccccc21)c1cc2c3c(cccc3c1)-c1ccccc1-2 | Aminopeptidase N (ANPEP, Sus scrofa, UniProt P15145) | enzyme activity |  | 3 µM, 30 min preincubation, diluted 10-fold, unit not given | baseline: untreated | remaining activity | 0.967 ± 0.002 |
| CO/N=C(\C(=O)N[C@@H]1C(=O)N2C(C(=O)O)=C(COC(C)=O)CS[C@H]12)c1csc(N)n1 | Pseudomonas aeruginosa |  | clinical isolate RKI-No_598/16 |  |  | MIC | > 16 µg/mL |
| [Ca+2] | uncharacterized protein (Bacteroides thetaiotaomicron, UniProt Q8A183) | phosphatase activity, activator, phosphate release |  | 5 mM, EDTA-treated enzyme, added: substrate 4 mM | baseline: activity with Mg2+ | relative specific activity | 0.057 |
| Nc1nc(N)c2c(ccc3nccc32)[nH]1 | Dihydrofolate reductase (folA, Escherichia coli, UniProt P0ABQ4) | differential scanning fluorimetry |  | estimate from thermal shift |  | Kd | 2.4 ± 0.6 µM |
| Fc1ccccc1Cc1nc(-c2nc(C(F)(F)F)n[nH]2)cn2ccnc12 |  |  | healthy human subjects, both sexes | oral, 10 mg, fasted |  | subjects with musculoskeletal TEAEs | 7.1% |

A few entries again:
| Structure (SMILES) | tested on | test | test system | setting | scale | measurement | result |
| --- | --- | --- | --- | --- | --- | --- | --- |
| C=C1[C@@H](O)[C@@H]2O[C@]3(CC[C@H](/C=C/[C@@H](C)[C@@H]4CC(C)=C[C@@]5(O[C@H](C[C@@](C)(O)C(=O)O)CC[C@H]5O)O4)O3)CC[C@H]2O[C@@H]1[C@@H](O)C[C@H](C)[C@H]1O[C@@]2(CCCCO2)CC[C@H]1C | T1, DNA aptamer | microscale thermophoresis |  | pH 7.5, 25 °C, NaCl 150 mM |  | Kd | 0.432 µM |
